Experimental data from different studies.
Every numbered part comes from another study and shows a few of its results, in no order. Positions count from the first letter of the parent shown.

Set 1 — technique: DHFR PCA, deep sequencing; sample: yeast; with: (+)-ABA 710 µM; relative to: wild-type fitted maximum; reading: higher = stronger binding
Target: ABI1, truncated, D143A, DHFR fusion (Arabidopsis thaliana)
Notes: methotrexate growth selection, single substitutions
Starting sequence: PYL1, truncated, DHFR fusion (Arabidopsis thaliana); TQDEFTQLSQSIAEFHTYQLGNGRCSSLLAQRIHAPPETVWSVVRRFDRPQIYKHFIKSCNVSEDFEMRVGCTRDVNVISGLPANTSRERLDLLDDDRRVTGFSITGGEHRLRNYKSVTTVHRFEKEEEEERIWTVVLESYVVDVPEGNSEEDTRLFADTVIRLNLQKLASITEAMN; partner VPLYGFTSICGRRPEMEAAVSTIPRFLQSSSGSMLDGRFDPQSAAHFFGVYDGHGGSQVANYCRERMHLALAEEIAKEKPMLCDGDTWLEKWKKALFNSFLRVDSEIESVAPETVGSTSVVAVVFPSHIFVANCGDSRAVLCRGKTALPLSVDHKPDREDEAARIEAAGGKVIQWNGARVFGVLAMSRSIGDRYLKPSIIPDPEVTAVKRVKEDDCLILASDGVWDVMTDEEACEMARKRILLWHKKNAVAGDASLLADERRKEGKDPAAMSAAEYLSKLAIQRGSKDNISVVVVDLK
Under “relative binding score”, `N85P` is recorded as 76.1%.
`A13G`: “relative binding score” 103%.
Under “relative binding score”, `L91V` is recorded as 44.3%.
`F15N` — result for “relative binding score”: 92.9%.
`R69F` — result for “relative binding score”: 89.8%.
`E151L` — result for “relative binding score”: 98.7%.
`Q51I`: “relative binding score” 79.8%.
Under “relative binding score”, `T119W` is recorded as -6.41%.
For `T135E`, “relative binding score” read -5.03%.
Under “relative binding score”, `E127F` is recorded as 103%.
For `E14F`, “relative binding score” read 77.8%.
`I105H`: “relative binding score” 5.4%.
Under “relative binding score”, `L166C` is recorded as 41.8%.

Set 2 — target: BATF2, bZIP domain (human); technique: DHFR protein complementation; sample: yeast; relative to: wild-type JUN-FOS pair; reading: higher = stronger binding
Notes: single substitutions, most at no-binding floor
Starting sequence: JUN, bZIP domain (human); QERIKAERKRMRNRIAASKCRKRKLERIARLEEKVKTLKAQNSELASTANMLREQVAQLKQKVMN; partner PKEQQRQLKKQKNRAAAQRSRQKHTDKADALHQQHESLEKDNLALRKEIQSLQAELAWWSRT
`Q41F` gave a binding fitness of -1.2 natural log.
With `L38R` the binding fitness was -1.17 natural log.
`M51T` has a binding fitness of -0.215 natural log.
With `A29Y` the binding fitness was -0.58 natural log.
With `A57K` the binding fitness was -0.274 natural log.
`A29D` has a binding fitness of -0.408 natural log.
The binding fitness of `S43N` is reported as -0.278 natural log.
The binding fitness of `A29R` is reported as -0.396 natural log.
For `K36F`, the binding fitness was -0.626 natural log.
With `A40T` the binding fitness was -0.213 natural log.
The binding fitness of `A40S` is reported as -0.363 natural log.
For `R30N`, the binding fitness was -0.268 natural log.
For `E44R`, the binding fitness was -0.44 natural log.
With `S43K` the binding fitness was -0.0596 natural log.
`I28D` gave a binding fitness of -0.481 natural log.
The binding fitness of `A49R` is reported as -0.118 natural log.
With `L52S` the binding fitness was -1.23 natural log.
`S47I` gave a binding fitness of -0.243 natural log.

Set 3 — technique: RNA Bind-n-Seq; molecule type: RNA; sample: in vitro; concentration: 365 nM; relative to: no-protein control; reading: higher = stronger binding
Target: RNA binding protein fox-1 homolog 2, RRM domain, GST-SBP tag (RBFOX2, Homo sapiens, UniProt O43251-10, residues 100-194)
Notes: natural RNA segment, single round, ends assumed
All sequences stand within: GGGAGUUCUACAGUCCGACGAUC … UGGAAUUCUCGGGUGCCAA
Residues (chain): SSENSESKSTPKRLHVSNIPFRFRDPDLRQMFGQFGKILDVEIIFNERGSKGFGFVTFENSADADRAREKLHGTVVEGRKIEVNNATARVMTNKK
`UAAAGCCCAUCCAGAUUAGUUUAGCUCUGACCACUAAUGGCAGGUCUUAAGGACCUUGUGAUUAGUCAAUCAACAAACCACAACACUUCCUAGGACCUGUUGUACUCCGU` — result for “RBNS enrichment (R)”: 0.241.
`UAAAUGGAAUGUUUCUGCCUCAGUUCUUUUGACUACCUCCUAGGACAUGGAAACAAAUAUUUGGGAGCCUGCAUAGUCUUUAGAUGGCUGCCAAAGCACUUAAAAUCUCC` — result for “RBNS enrichment (R)”: 0.722.
For `AAACUGUGACACUGUGUAAUGAGCACUGUUCCCAGCGGCAAUUACAGAGAAAACGAGUGUAAAUUAUUUCAACUGGAAAAAAGUCCCUUUCUUGGCUGUUUUAGAACAGG`, “RBNS enrichment (R)” read 0.359.
`UUGAGAAACACAUAACAUCUCUCCUUUCUAUGAAAAAUUUUUUAAAAGGUGGUUAAAAUUGCCUUUAAUUGCCCAGUAGACUAAUUCCACAGUCAGAACAUGCAAACUUU`: “RBNS enrichment (R)” 0.701.
`GGAGGCAACAGGGAAAAAAUCUCAUCUUCUUUUCCAGUAGAAAAUAGUUUGUGAAAUGAUGAGGGCAUUUUAUCUGCUUGCUGUGACCAGCGUGUGUACACAUAAACCUU` — result for “RBNS enrichment (R)”: 0.564.
For `GGCUGUUACAAUCAAGUCGUUGCAGGGUUUGGAUCAGCUGUAAGUUAGGUAUGCCUACCAAACAUCCAAAGGUAGACGUGGAGACAUUUUAAUACUACAAAACUAGGAAA`, “RBNS enrichment (R)” read 0.33.
For `GCAGGCAGAAUGUGCAUACAUGUUUUCAUGAGUGUCCUUUGGGUGCUGUUUCUUUUAAAUCCUCUGUGCACAGGGCUCUGGCCUUUAGUAAACUGUUUUUCUGUCUUACG`, “RBNS enrichment (R)” read 0.271.
`UUAUGCGUGCGAGAAGUCAGUGGUAACUGCUGCAGGGCUUAAUACAUUAGUGGUAACUGGUUUAAAAAACAAAGACUGUAAGCCUGUGUGUGCCACUGUUUGCUUCAACA`: “RBNS enrichment (R)” 0.662.

Set 4 — target: CCNB1, cyclin fold, Cln2 fusion (human); technique: yeast growth competition, sequencing; sample: yeast; notes: strong parent motif; relative to: not given; reading: higher = stronger binding
Starting sequence: PKN2 docking peptide (human); VSAVRKLDFSDTM; partner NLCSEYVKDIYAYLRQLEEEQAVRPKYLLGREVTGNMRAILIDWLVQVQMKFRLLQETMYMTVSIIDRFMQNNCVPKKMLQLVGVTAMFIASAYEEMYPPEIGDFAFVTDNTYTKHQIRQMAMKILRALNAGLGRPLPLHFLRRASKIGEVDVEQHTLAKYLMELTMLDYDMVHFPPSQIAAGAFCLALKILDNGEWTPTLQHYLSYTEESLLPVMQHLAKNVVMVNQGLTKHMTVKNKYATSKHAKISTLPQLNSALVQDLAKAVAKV
`VSAVRNLDFSDTM [K6N]` — result for “normalised enrichment score”: 0.792.
Under “normalised enrichment score”, `VEAVRKLDFSDTM [S2E]` is recorded as 3.48.
Under “normalised enrichment score”, `VSAVRYLDFSDTM [K6Y]` is recorded as 2.04.
Under “normalised enrichment score”, `VSAVRMLDFSDTM [K6M]` is recorded as 3.1.
Under “normalised enrichment score”, `VSAVRKLDFTDTM [S10T]` is recorded as 3.97.
`VSAVRKLDFDDTM [S10D]` — result for “normalised enrichment score”: 5.2.
`VSAVRKLDFSDLM [T12L]`: “normalised enrichment score” 3.22.
`VSAVRKWDFSDTM [L7W]`: “normalised enrichment score” -0.0235.
For `VSAVRKLDNSDTM [F9N]`, “normalised enrichment score” read 0.295.
For `VSAVRELDFSDTM [K6E]`, “normalised enrichment score” read 1.86.
`VSAVLKLDFSDTM [R5L]` — result for “normalised enrichment score”: 1.86.
For `VSAVRKLDHSDTM [F9H]`, “normalised enrichment score” read 0.277.
Under “normalised enrichment score”, `VSAVRKLDISDTM [F9I]` is recorded as 0.585.
`VSAVRKLDQSDTM [F9Q]` — result for “normalised enrichment score”: 0.346.
`VSAVRHLDFSDTM [K6H]`: “normalised enrichment score” 2.51.
Under “normalised enrichment score”, `VAAVRKLDFSDTM [S2A]` is recorded as 2.76.
`VSASRKLDFSDTM [V4S]` — result for “normalised enrichment score”: 0.764.
For `VSAVRLLDFSDTM [K6L]`, “normalised enrichment score” read 0.971.
Under “normalised enrichment score”, `VSAVRKLVFSDTM [D8V]` is recorded as 2.83.
For `VSAGRKLDFSDTM [V4G]`, “normalised enrichment score” read 0.0405.
`VSIVRKLDFSDTM [A3I]` — result for “normalised enrichment score”: 5.49.
Under “normalised enrichment score”, `VSAVVKLDFSDTM [R5V]` is recorded as 1.59.
`VSAVRRLDFSDTM [K6R]` — result for “normalised enrichment score”: 4.41.
For `VSAVRKLDKSDTM [F9K]`, “normalised enrichment score” read 0.445.
Under “normalised enrichment score”, `VSAVRKLDFPDTM [S10P]` is recorded as 2.95.

Set 5 — technique: universal PBM; molecule type: double-stranded DNA, one strand shown; sample: in vitro; concentration: not given; reading: higher = stronger binding
Target: Sal-like protein 4, full length isoform B (SALL4, Homo sapiens, UniProt Q9UJQ4-2, residues 1-616)
Notes: 8-mer, flanks averaged, mean of replicates
Residues (chain): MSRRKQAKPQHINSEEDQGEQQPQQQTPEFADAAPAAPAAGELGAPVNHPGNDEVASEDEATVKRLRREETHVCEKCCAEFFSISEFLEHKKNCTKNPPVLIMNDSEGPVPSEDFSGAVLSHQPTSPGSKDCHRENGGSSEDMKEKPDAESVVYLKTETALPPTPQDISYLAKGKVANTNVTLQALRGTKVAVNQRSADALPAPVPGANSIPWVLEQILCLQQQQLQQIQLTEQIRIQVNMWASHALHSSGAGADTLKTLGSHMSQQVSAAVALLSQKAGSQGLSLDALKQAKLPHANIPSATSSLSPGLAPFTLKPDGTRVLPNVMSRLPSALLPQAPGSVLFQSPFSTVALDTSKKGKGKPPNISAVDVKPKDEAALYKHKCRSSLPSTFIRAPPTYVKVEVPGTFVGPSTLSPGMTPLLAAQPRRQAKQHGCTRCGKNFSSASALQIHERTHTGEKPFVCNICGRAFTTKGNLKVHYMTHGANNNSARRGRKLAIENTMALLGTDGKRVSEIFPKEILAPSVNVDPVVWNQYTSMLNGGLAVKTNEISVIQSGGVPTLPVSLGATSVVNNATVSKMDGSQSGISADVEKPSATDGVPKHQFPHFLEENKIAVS
With `AGTGCCAT` the E-score was 0.0314.
The E-score of `CCGCATCG` is reported as -0.358.
`CCTGGGCG` gave an E-score of -0.313.
For `CCTTGGCA`, the E-score was -0.141.
With `GAGCATGA` the E-score was -0.0538.
`GCATAACC` has an E-score of 0.00559.
For `AGGGCCCT`, the E-score was -0.147.
With `CGGGAGTC` the E-score was -0.211.
For `GGAAGGGA`, the E-score was -0.257.
`ACGCCGTG` has an E-score of -0.253.
For `CGCGTGCA`, the E-score was -0.0928.
`AATGTACC` has an E-score of 0.155.
The E-score of `CCTCCCAA` is reported as -0.177.
`CCGCAGAA` has an E-score of -0.0851.
The E-score of `CAAATCCC` is reported as -0.166.
`CCAAGCGA` gave an E-score of -0.157.
The E-score of `CCCGCCCG` is reported as -0.306.
`AGGCAAGA` has an E-score of 0.0895.

Excerpt of the above (set 4):
`VSAVRKWDFSDTM [L7W]`: “normalised enrichment score” -0.0235.
For `VSAVRKLDNSDTM [F9N]`, “normalised enrichment score” read 0.295.
For `VSAVRELDFSDTM [K6E]`, “normalised enrichment score” read 1.86.
`VSAVLKLDFSDTM [R5L]` — result for “normalised enrichment score”: 1.86.
For `VSAVRKLDHSDTM [F9H]`, “normalised enrichment score” read 0.277.
Under “normalised enrichment score”, `VSAVRKLDISDTM [F9I]` is recorded as 0.585.
`VSAVRKLDQSDTM [F9Q]` — result for “normalised enrichment score”: 0.346.
